Experimental data pooled from the literature.
Protocols differ between the studies behind these lines. ± marks the error that the study gave.
Organism: Trypanosoma cruzi

CCOC(=O)CC1SC(=NN=Cc2ccc(Br)cc2)NC1=O (stereo not drawn)
EC50 (parasite growth; 24 h, trypomastigote): 8.45 µM

O=C1C=CS(=O)(=O)c2cc(-c3cc(C(F)(F)F)cc(C(F)(F)F)c3)ccc21
EC50 (intracellular amastigote growth; U-937, Tulahuen, β-galactosidase transfected; 72 h): 152 µM

Clc1ccc(NCc2cncn2Cc2ccc(-c3ccccc3)cc2)cc1-c1ccccc1
EC50 (parasite growth; mouse Fibroblast; intracellular, amastigote): 0.007 µM

CCOC(=O)c1csc(NN=Cc2cccc(Cl)c2)n1
EC50 (parasite growth; 24 h, trypomastigote): 4.44 µM

Cc1ccc2nc(-c3ccc(Cl)cc3)cn2c1
EC50 (3T3 host cells, Tulahuen beta-galactosidase; 6 days): > 5 µM

O=C(Cn1ccnc1[N+](=O)[O-])NCc1ccccc1
EC50 (parasite growth; intracellular, amastigote): 1.52 µM

O=C1C=CS(=O)(=O)c2cc(Br)ccc21
EC50 (intracellular amastigote growth; U-937, Tulahuen, β-galactosidase transfected; 72 h): 824 µM

O=C(N[C@H](Cc1c[nH]c2ccccc12)C(=O)Nc1ccncc1)c1ccc(N2CCN(S(=O)(=O)C3CC3)CC2)cc1F
EC50 (mouse C2C12 myoblasts, CA-I/72; 72 h): > 10 µM

CCOC(=O)CC1SC(=NN=Cc2ccccc2)NC1=O (stereo not drawn)
EC50 (parasite growth; 24 h, trypomastigote): 33.8 µM

O=C(N[C@H](Cc1c[nH]c2ccccc12)C(=O)Nc1ccncc1)c1ccc(N2CCN(S(=O)(=O)c3cccs3)CC2)cc1F
EC50 (mouse C2C12 myoblasts, CA-I/72; 72 h): 0.00082 ± 1e-05 µM

O=C1C(Cc2ccco2)=CS(=O)(=O)c2ccccc21
EC50 (intracellular amastigote growth; U-937, Tulahuen, β-galactosidase transfected; 72 h): 72.9 µM

c1ccc(-c2ccc(Cn3cncc3CNc3ccc(-c4cncs4)c(-c4ccccc4)c3)cc2)cc1
EC50 (parasite growth; mouse Fibroblast; intracellular, amastigote): 0.028 µM

N#CSCCOc1ccc(Oc2ccccc2F)cc1
EC50 (parasite growth; intracellular, amastigote): > 10 µM

CCOC(=O)CC1SC(=NN=Cc2ccccc2O)NC1=O (stereo not drawn)
EC50 (parasite growth; 24 h, trypomastigote): 19.8 µM

O=C1C=CS(=O)(=O)c2c1cccc2-c1cc(C(F)(F)F)cc(C(F)(F)F)c1
EC50 (intracellular amastigote growth; U-937, Tulahuen, β-galactosidase transfected; 72 h): 24.3 µM

CCOC(=O)CC1SC(=NN=Cc2ccc(C)cc2)NC1=O (stereo not drawn)
EC50 (parasite growth; 24 h, trypomastigote): 29.3 µM

c1ccc(-c2ccc(Cn3cncc3CNc3ccc(N4CCCCC4)c(-c4ccccc4)c3)cc2)cc1
EC50 (parasite growth; mouse Fibroblast; intracellular, amastigote): 0.035 µM

O=C1C=CS(=O)(=O)c2ccc(-c3cc(C(F)(F)F)cc(C(F)(F)F)c3)cc21
EC50 (intracellular amastigote growth; U-937, Tulahuen, β-galactosidase transfected; 72 h): 229 µM

O=C(N[C@H](Cc1c[nH]c2ccccc12)C(=O)Nc1ccncc1)c1ccc(N2CCN(S(=O)(=O)c3ccc(C(F)(F)F)cc3)CC2)cc1F
EC50 (mouse C2C12 myoblasts, CA-I/72; 72 h): 2.8 ± 3.3 µM

Cn1cncc1[C@@](N)(c1ccc(Cl)cc1)c1ccc2c(c1)c(-c1cccc(Cl)c1)cc(=O)n2C
EC50 (parasite growth; NIH3T3; intracellular, amastigote): 0.004 µM

O=C(N[C@H](Cc1c[nH]c2ccccc12)C(=O)Nc1ccncc1)c1ccc(N2CCN(S(=O)(=O)c3ccsc3C(=O)O)CC2)cc1F
EC50 (mouse C2C12 myoblasts, CA-I/72; 72 h): > 10 µM

CCOC(=O)CC1SC(=NN=Cc2ccccc2C)NC1=O (stereo not drawn)
EC50 (parasite growth; 24 h, trypomastigote): 12.6 µM

O=C1C(Cc2ccc(Cl)cc2)=CS(=O)(=O)c2ccccc21
EC50 (intracellular amastigote growth; U-937, Tulahuen, β-galactosidase transfected; 72 h): 62.7 µM

N#CSCCOc1cccc2ccccc12
EC50 (parasite growth; intracellular, amastigote): > 10 µM

CCOC(=O)c1csc(NN=Cc2ccc(OC)cc2)n1
EC50 (parasite growth; 24 h, trypomastigote): 20.5 µM

COC(=O)c1ccc(NCc2cncn2Cc2ccc(F)cc2F)cc1-c1ccccc1
EC50 (amastigote growth; 3T3 fibroblasts, Tulahuen): 0.025 µM

CCOC(=O)c1csc(NN=C(C)c2ccccc2)n1
EC50 (parasite growth; 24 h, trypomastigote): 2.83 µM

O=C1C=CS(=O)(=O)c2ccc(Br)cc21
EC50 (intracellular amastigote growth; U-937, Tulahuen, β-galactosidase transfected; 72 h): 73.2 µM

CN(C)c1ccc(NCc2cncn2Cc2ccc(-c3ccccc3)cc2)cc1-c1ccccc1
EC50 (parasite growth; mouse Fibroblast; intracellular, amastigote): 0.026 µM

COC(=O)c1sccc1S(=O)(=O)N1CCN(c2ccc(C(=O)N[C@H](Cc3c[nH]c4ccccc34)C(=O)Nc3ccncc3)c(F)c2)CC1
EC50 (mouse C2C12 myoblasts, CA-I/72; 72 h): 3.1 ± 1.2 µM

A few entries again:
Cc1ccc2nc(-c3ccc(Cl)cc3)cn2c1
EC50 (3T3 host cells, Tulahuen beta-galactosidase; 6 days): > 5 µM

O=C(Cn1ccnc1[N+](=O)[O-])NCc1ccccc1
EC50 (parasite growth; intracellular, amastigote): 1.52 µM

O=C1C=CS(=O)(=O)c2cc(Br)ccc21
EC50 (intracellular amastigote growth; U-937, Tulahuen, β-galactosidase transfected; 72 h): 824 µM

O=C(N[C@H](Cc1c[nH]c2ccccc12)C(=O)Nc1ccncc1)c1ccc(N2CCN(S(=O)(=O)C3CC3)CC2)cc1F
EC50 (mouse C2C12 myoblasts, CA-I/72; 72 h): > 10 µM

CCOC(=O)CC1SC(=NN=Cc2ccccc2)NC1=O (stereo not drawn)
EC50 (parasite growth; 24 h, trypomastigote): 33.8 µM
